Results gathered from unrelated publications.
Protocols differ between the studies behind these lines.
TDP1: Tyrosyl-DNA phosphodiesterase 1 (TDP1, Homo sapiens, UniProt Q9NUW8)
Chain of UniProt Q9NUW8 (whole entry, looked up): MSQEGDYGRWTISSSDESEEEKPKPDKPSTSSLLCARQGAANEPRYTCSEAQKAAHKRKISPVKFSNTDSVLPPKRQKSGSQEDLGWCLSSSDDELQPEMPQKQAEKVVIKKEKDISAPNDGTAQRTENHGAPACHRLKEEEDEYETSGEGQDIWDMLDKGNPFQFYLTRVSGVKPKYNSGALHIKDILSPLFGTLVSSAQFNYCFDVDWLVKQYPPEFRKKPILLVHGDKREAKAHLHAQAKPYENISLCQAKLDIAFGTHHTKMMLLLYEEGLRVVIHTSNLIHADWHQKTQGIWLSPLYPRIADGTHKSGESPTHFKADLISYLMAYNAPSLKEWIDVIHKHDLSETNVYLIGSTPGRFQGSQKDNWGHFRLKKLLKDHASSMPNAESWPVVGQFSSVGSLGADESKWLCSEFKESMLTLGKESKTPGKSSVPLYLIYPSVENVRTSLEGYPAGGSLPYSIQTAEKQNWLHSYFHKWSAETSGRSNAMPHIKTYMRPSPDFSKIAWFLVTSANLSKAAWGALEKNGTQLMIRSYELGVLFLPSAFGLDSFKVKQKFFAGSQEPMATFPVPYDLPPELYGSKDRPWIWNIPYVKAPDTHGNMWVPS
T1: dsDNA, duplex; chain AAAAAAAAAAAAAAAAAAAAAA; chain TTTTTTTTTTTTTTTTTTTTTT
T2: RNA, abasic bulge mismatch; chain CUAACGGAAUG; chain CAUUCGGUUAG
T3: DNA aptamer; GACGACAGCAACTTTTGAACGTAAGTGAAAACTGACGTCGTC
T4: dsDNA, duplex; chain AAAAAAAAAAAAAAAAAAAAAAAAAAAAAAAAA; chain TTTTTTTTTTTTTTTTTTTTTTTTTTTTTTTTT
T5: RNase P RNA (Methanobrevibacter smithii); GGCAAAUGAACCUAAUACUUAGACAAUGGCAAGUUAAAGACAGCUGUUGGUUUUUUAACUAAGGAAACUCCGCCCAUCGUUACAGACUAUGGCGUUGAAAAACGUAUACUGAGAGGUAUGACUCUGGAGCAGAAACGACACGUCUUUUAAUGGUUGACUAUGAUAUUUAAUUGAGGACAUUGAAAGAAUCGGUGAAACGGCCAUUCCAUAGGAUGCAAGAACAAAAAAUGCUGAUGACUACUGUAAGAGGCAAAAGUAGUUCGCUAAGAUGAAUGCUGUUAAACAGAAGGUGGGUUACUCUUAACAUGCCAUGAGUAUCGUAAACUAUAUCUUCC
T6: RNA, abasic bulge, CUG repeat hairpin; GACAGCUGCUGUC
T7: dsDNA, duplex; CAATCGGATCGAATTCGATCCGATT
T8: dsDNA; chain CTGCACTAGGCACTACCG; chain CGGTAGTGCCTAGTGCAG
T9: RNA, abasic bulge mismatch; chain CUAAUGGAAUG; chain CAUUUGGUUAG
T10: RNA, base-paired repeat; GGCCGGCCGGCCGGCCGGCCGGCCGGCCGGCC
T11: RNA; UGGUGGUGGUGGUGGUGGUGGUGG

| Compound | target | test | test system | setting | measurement | value |
| --- | --- | --- | --- | --- | --- | --- |
| CCCc1n(Cc2ccc(Br)cc2)c2c([n+]1Cc1ccc(Br)cc1)CCCC2 | T1, dsDNA, duplex | competition with EtBr, competitor, EtBr displacement fluorescence |  | Na+ 50 mM, together with: EtBr | binding | binds |
| CN1CCOc2cc(C=NOCc3ccc4nc(-c5ccccc5)c(Nc5ccc(C(=O)O)cc5)n4c3)cnc21 | TDP1 | enzyme activity, inhibitor |  | 100 µM, unpurified compound | inhibition | 3% |
| Cc1ccc2ccc(NC(=O)OCCCNCc3ccc(/N=N\c4ccc(CNCCCOC(=O)Nc5ccc6ccc(C)nc6n5)cc4)cc3)nc2n1 | T2, RNA, abasic bulge mismatch | thermal melting |  |  | binding | no binding |
| Cn1c(=O)c2c(ncn2C)n(C)c1=O | T3, DNA aptamer | competitor, fluorescence displacement |  | together with: quinine 100 nM | binding | no binding |
| CCCCCCCCn1c(CC)c(C)[n+](CCCCCCCC)c1CCC | T4, dsDNA, duplex | competition with EtBr, competitor, EtBr displacement fluorescence |  | Na+ 50 mM, together with: EtBr | binding | binds |
| CN[C@H](C(=O)O)C(C)C | T5, RNase P RNA (Methanobrevibacter smithii) | WaterLOGSY NMR |  |  | binding | no binding |
| COc1cccc(Nc2cc(C)nc3ccc(C(=N)N)cc23)c1 | T6, RNA, abasic bulge, CUG repeat hairpin | NMR |  | 35 °C | binding | binds |
| CN(C)c1ccc(C2=C/C(=C/C=C/C3=[N+](C)c4ccccc4C3(C)C)c3ccccc3O2)cc1 | T7, dsDNA, duplex | fluorescence turn-on |  |  | binding | binds |
| COC(=O)c1ccc(C=NOCc2ccc3nc(-c4ccccc4)c(Nc4ccc(C(=O)O)cc4)n3c2)cc1 (mixture of isomers) | TDP1 | enzyme activity, inhibitor |  | 100 µM, unpurified compound | inhibition | 28.7% |
| N=C(NCCCCNC(=N)NCCCCNc1nc(N)nc(NCCCCNC(=N)NCCCCNC(=N)NCCCCNc2nc(N)nc(NCCCCN)n2)n1)NCCCCNc1nc(N)nc(NCCCCN)n1 | T8, dsDNA | ITC |  |  | binding | binds weakly |
| Cc1ccc2ccc(NC(=O)OCCCN(CCCOC(=O)Nc3ccc4ccc(C)nc4n3)Cc3ccc(/N=N/c4ccc(CN(CCCOC(=O)Nc5ccc6ccc(C)nc6n5)CCCOC(=O)Nc5ccc6ccc(C)nc6n5)cc4)cc3)nc2n1 | T9, RNA, abasic bulge mismatch | CD spectra |  | before irradiation | binding | no binding |
| CN(C)c1ccc(C2=C/C(=C/C=C/c3sc4ccccc4[n+]3C)c3ccccc3O2)cc1 | T7, dsDNA, duplex | fluorescence turn-on |  |  | binding | no binding |
| O=C(CN1CCCN(C(=O)CN2CCCN(Cc3cccc4cnccc34)CC2)CC1)NCCOCCOCCNCCOCCOCCNC(=O)CN1CCCN(C(=O)CN2CCCN(Cc3cccc4cnccc34)CC2)CC1 | T10, RNA, base-paired repeat | BLI |  |  | binding | binds weakly |
| N=C(NCCCCNC(=N)NCCCCNc1nc(N)nc(NCCCCNC(=N)NCCCCNC(=N)NCCCCNc2nc(N)nc(NCCCCNC(=N)NCCCCNC(=N)NCCCCNc3nc(N)nc(NCCCCNC(=N)NCCCCNC(=N)NCCCCNc4nc(N)nc(NCCCCN)n4)n3)n2)n1)NCCCCNc1nc(N)nc(NCCCCN)n1 | T8, dsDNA | ITC |  |  | binding | binds weakly |
| N=C(N)Nc1ccc(OC(=O)c2ccc(NC(=N)N)cc2)cc1 | T6, RNA, abasic bulge, CUG repeat hairpin | NMR |  | 25 °C | binding | binds |
| O=C1Nc2ccc3ccc(nc3n2)CNCc2ccc3ccc(nc3n2)NC(=O)OCCCNCCCO1 | T11, RNA | SPR |  |  | binding | binds |
| CC(=O)c1cnc(N)nc1N1CC[C@H]1c1nn2ccc(Cl)c2c(=O)n1-c1ccccc1 | Phosphatidylinositol-4,5-bisphosphate 3-kinase, catalytic subunit gamma (Rattus norvegicus, UniProt D3ZFJ0) | KiNativ | rat whole blood cells | 0.1 µM, 1 h | binding | 26.2% |

Repeated from above:
| Compound | target | test | test system | setting | measurement | value |
| --- | --- | --- | --- | --- | --- | --- |
| CN[C@H](C(=O)O)C(C)C | T5, RNase P RNA (Methanobrevibacter smithii) | WaterLOGSY NMR |  |  | binding | no binding |
| COC(=O)c1ccc(C=NOCc2ccc3nc(-c4ccccc4)c(Nc4ccc(C(=O)O)cc4)n3c2)cc1 (mixture of isomers) | TDP1 | enzyme activity, inhibitor |  | 100 µM, unpurified compound | inhibition | 28.7% |
